Measurements of several laboratories.
Numbered parts are unrelated; each lists some results of a single study.

Set 1 — technique: RNAcompete; molecule type: RNA; sample: in vitro; tested at: 20 nM; setting: 7-mer, probes averaged, single round; reference: mean of 7-mers; direction: higher = stronger binding
Target: PABPC1L2, full length, GST fusion (mouse, UniProt A0ABA7IW68)
Target sequence (chain): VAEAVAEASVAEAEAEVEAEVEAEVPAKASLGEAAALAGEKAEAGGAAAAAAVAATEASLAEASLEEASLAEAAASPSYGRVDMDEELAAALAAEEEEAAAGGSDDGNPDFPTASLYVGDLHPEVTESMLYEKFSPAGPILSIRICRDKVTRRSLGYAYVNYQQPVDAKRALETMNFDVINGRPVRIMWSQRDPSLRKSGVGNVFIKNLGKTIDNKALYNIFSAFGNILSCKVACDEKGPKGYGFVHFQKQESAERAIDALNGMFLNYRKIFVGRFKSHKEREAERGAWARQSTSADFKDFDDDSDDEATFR
For `CAGGACA`, the 7-mer Z-score was 0.258.
`CAUGAUC` has a 7-mer Z-score of -0.159.
For `ACGUGGC`, the 7-mer Z-score was 0.149.
`AAGUCGU` has a 7-mer Z-score of -0.103.
The 7-mer Z-score of `UUUAAUC` is reported as -0.0264.
`AGCAGGG` has a 7-mer Z-score of 0.148.
For `UAUAGAG`, the 7-mer Z-score was -0.159.
The 7-mer Z-score of `UUGUAGC` is reported as -0.347.
The 7-mer Z-score of `AGGGUAA` is reported as 0.242.
With `CGCUCGU` the 7-mer Z-score was -0.478.
With `UCCGAGU` the 7-mer Z-score was -0.177.
`CCCGGUA` has a 7-mer Z-score of -0.284.
The 7-mer Z-score of `GAUUUUG` is reported as -0.318.
`AGAGAUU` gave a 7-mer Z-score of -0.113.
`UUGGUCC` has a 7-mer Z-score of -0.191.
For `UUCUGGU`, the 7-mer Z-score was -0.164.
`ACCGCGC` gave a 7-mer Z-score of -0.0953.
For `CUCUGCA`, the 7-mer Z-score was -0.184.
The 7-mer Z-score of `GGUUGGU` is reported as -0.115.
For `UACCCUG`, the 7-mer Z-score was -0.322.
`UACCCAA` gave a 7-mer Z-score of -0.141.
The 7-mer Z-score of `UUAUGAA` is reported as 0.0932.
`AUAUCGU` has a 7-mer Z-score of -0.242.
For `GCAAUCG`, the 7-mer Z-score was -0.0192.
`CCAUGCG` gave a 7-mer Z-score of -0.229.

Set 2 — technique: protein binding microarray; molecule type: double-stranded DNA, one strand shown; sample: in vitro; tested at: not given; reference: not given; direction: higher = stronger binding
Target: Histone acetyltransferase KAT6A, winged helix 1, GST fusion (KAT6A, Homo sapiens, UniProt Q92794, residues 1-85)
Setting: 8-mer, flanks averaged, mean of 2 arrays, mostly near background
Residues (chain): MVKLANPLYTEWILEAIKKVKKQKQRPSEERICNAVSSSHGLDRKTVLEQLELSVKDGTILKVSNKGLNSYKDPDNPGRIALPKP
With `AGAAATTA` the E-score was -0.1.
`ACACGCTA` has an E-score of 0.205.
With `CTCAATAA` the E-score was -0.218.
For `CACTCGCC`, the E-score was 0.113.
With `AACAAACT` the E-score was -0.208.
The E-score of `CTCGGCCC` is reported as 0.142.
The E-score of `AGGGCGGC` is reported as 0.345.
`CCATCAGC` has an E-score of -0.0184.
`CCACATCG` has an E-score of 0.112.
`AAGGAGCA` has an E-score of -0.26.
`CGACACAG` gave an E-score of 0.0447.
With `GTTCTGTA` the E-score was -0.158.
For `GTTTGGCA`, the E-score was -0.155.
The E-score of `CATCCAGG` is reported as -0.222.
For `CGTTGGGC`, the E-score was 0.0803.
`GGTTTGTA` gave an E-score of -0.184.
For `AAAAAAAG`, the E-score was -0.0557.
With `ACCCCCGC` the E-score was 0.271.
`GTCCCGAC` gave an E-score of 0.272.
For `CACACATA`, the E-score was -0.292.
For `GGTTACCA`, the E-score was -0.0118.

Set 3 — technique: RNA Bind-n-Seq; molecule type: RNA; sample: in vitro; tested at: 200 nM; setting: whole 134-nt RNA, ends assumed; with: 150 mM KCl; reference: input library; direction: higher = stronger binding
Target: Ras GTPase-activating protein-binding protein 1, full length (G3BP1, Homo sapiens, UniProt Q13283)
Sequence of UniProt Q13283 (whole entry, looked up): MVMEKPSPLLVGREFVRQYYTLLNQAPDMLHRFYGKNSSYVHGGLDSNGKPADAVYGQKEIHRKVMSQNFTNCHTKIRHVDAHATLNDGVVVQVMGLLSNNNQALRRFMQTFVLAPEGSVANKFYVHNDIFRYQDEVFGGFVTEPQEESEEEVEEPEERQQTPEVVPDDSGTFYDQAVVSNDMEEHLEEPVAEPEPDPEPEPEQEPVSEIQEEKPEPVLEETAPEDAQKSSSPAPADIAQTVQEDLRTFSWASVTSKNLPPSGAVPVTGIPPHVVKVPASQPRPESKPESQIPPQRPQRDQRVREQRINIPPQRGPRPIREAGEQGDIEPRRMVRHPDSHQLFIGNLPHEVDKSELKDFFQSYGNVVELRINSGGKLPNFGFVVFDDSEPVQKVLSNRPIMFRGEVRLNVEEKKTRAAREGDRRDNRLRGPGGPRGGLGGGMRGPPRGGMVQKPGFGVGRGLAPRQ
Shared flanks, not repeated: GGGAGUUCUACAGUCCGACGAUC … UGGAAUUCUCGGGUGUCAAGG
The log2 enrichment of `CCUGUGCUACACAUCGUAUGUACCGAAUCAAAUUUUUAAACCCCCCCAAAUUUUUUUAAAAAAGUAUUAUGUUACGCCGUUCGGAUCUGC` is reported as 0.243.
For `AAAAUGCAGGUGGGCAUCUUUGGGAAGUGGGGCAAGGGGGGGAUAGGGAGGGGGGUAACACUUUGGGAACAGGUGGUCCCAGGUCGUUUC`, the log2 enrichment was 1.33.
With `UGGAAUAAGCCUGGUGCUUUCUGGCUAUGUUUGUCAUAGGCUGACCUGGAUAUCACCGAAAUAAACAAACUAACAGCAGAAGCUAUUCAG` the log2 enrichment was -0.621.
For `AGUCCUGUGCUACACAUCGUAUGUACCGAAUCGGGAAAAAAAGGGUUUGGGUUUGGGAAAGUAUUAUGUUACGCCGUUCGGAUCUGCACU`, the log2 enrichment was -0.229.
The log2 enrichment of `UGGGAGGUGGAUUUUGUUUAUUCUUUUAGCUCAUUUCCAGGGGUGGGAAUUUUUUUUUAAUAUGUGUCAUGAAUAAAGUUGUUUUUGAAA` is reported as 0.0815.
The log2 enrichment of `AGUCCUGUGCUACACAUCGUAUGUACCGAAUCGGGUGGGUUUUUGGGAAAAAAAGGGAAAGUAUUAUGUUACGCCGUUCGGAUCUGCACU` is reported as -0.325.
`CAAGUCCUGUGCUACACAUCGUAUGUACCGAAUCGGGUUUGGGAAAGGGAAAGGGAAAGUAUUAUGUUACGCCGUUCGGAUCUGCACUUC` has a log2 enrichment of 0.618.
`GCAGGAAGUAAAAACAAAUGGAAAUGCUUCGGAUAGUGGCAGGGGUGGGGGUUGCUAAGGAAAGGGUGGGAUGGGAGUGGGCAAAGAGUU` gave a log2 enrichment of 1.25.
For `CUGUGCUACACAUCGUAUGUACCGAAUCGGCCCCCCCGGGGCCCCCCCGGGCCCCCCCGGGAAAGUAUUAUGUUACGCCGUUCGGAUCUG`, the log2 enrichment was -1.22.
With `ACCAUGCAGGUGGGCAUCUUUGGGAAGUGGGGCAAGGGGGGGAUAGGGAGGGGGGUAACACUUUGGGAACAGGUGGUCCCAGGUCGAAAC` the log2 enrichment was 1.38.
`AGUCCUGUGCUACACAUCGUAUGUACCGAAUCGGGUUUUUGGGUGGGUUUUUUUGGGAAAGUAUUAUGUUACGCCGUUCGGAUCUGCACU` has a log2 enrichment of -0.079.
`UGGGAGGUGGAUUUUGUUUAUUUUUUUAGCUUAUUUCCAGGGGUGGGAAUUUUUUUUUAAUAUGUGUCAUGAAUAAAGUUGUUUUUGAAA` gave a log2 enrichment of 0.119.
With `UAACUUUAGAGGAGGAUCUGAUGGAUAUGGCAGUGGACGUGGAUUUGGGGAUGGCUAUAAUGGGUAUGGAGGAGGACCUGGCGGUGGCAA` the log2 enrichment was 0.0556.
For `CAAGUCCUGUGCUACACAUCGUAUGUACCGAAUCGGGCCCCGGCCCCGGGCCCCGGAAAGUAUUAUGUUACGCCGUUCGGAUCUGCACUU`, the log2 enrichment was -0.829.

Set 4 — technique: protein-binding microarray; molecule type: double-stranded DNA, one strand shown; sample: in vitro; tested at: 250 nM; setting: 60-bp whole probe; with: salmon DNA 0.4 mg/ml; reference: random background probes; direction: higher = stronger binding; shared flanks, not repeated: GCCTAGCAC … GTCTTGATTCGCTTGACGCTGCTG
Target: Interferon regulatory factor 7, full length, phosphomimetic (IRF7, Homo sapiens, UniProt Q92985, residues 1-503, S101K/S471D/S472D/S475D/S476D/S477D/S483D/S484D/S487D)
Sequence of UniProt Q92985 (whole entry, unmodified, looked up): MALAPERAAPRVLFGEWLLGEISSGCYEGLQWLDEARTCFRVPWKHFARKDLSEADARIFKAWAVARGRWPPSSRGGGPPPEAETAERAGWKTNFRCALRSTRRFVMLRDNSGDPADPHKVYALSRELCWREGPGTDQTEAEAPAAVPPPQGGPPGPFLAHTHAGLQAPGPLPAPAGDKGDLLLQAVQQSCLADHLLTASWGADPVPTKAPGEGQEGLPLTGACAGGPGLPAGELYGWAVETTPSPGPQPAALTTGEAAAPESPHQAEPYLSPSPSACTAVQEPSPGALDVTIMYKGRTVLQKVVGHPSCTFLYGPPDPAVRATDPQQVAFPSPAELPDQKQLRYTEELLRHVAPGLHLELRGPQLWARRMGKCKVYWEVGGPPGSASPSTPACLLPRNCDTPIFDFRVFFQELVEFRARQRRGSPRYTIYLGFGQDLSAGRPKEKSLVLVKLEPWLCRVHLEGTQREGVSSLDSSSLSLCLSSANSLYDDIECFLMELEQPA
The log fluorescence of `TTAGAACTTGGGTTTCGATTAGTGCTA` is reported as 6.66 z-score.
The log fluorescence of `GACGATTCCAGTTTAGAGACGTGCTAG` is reported as 0.526 z-score.
For `TTAGGTATCGGGTATTGGTTAGTGCTA`, the log fluorescence was 0.695 z-score.
`TTGTTTTACAATTTGCTTTAGTGCTAG` has a log fluorescence of 1.82 z-score.
The log fluorescence of `TCTCCTCTAGGTTCTCTGAGAGTGCTA` is reported as 0.372 z-score.
`TCATATTCATATATATAACTGTGCTAG` gave a log fluorescence of 0.95 z-score.
With `TTAGAACTGGGGTTTAGATTAGTGCTA` the log fluorescence was -0.539 z-score.
`GAAGCCCTCCCTGTGGGGGGGTGCTAG` gave a log fluorescence of 1.53 z-score.
For `TTAGATCTCAGTTTCGATTGGTGCTAG`, the log fluorescence was 9.73 z-score.
`GACGAAGTGAGTTTCGAGACGTGCTAG` has a log fluorescence of 3.27 z-score.
With `TCAGTTCTGAGTCTTCCACTGTGCTAG` the log fluorescence was 0.108 z-score.
For `GATTATAAAATGTGTGTTTGGTGCTAG`, the log fluorescence was 0.595 z-score.
With `CTTTTTTTGGTAATAGTGAAGTGCTAG` the log fluorescence was 1.26 z-score.
`ATGACAATGATGTTTTGAGTTGTGCTA` has a log fluorescence of -0.301 z-score.
`TTATGTATCGGGTTTCGGTTAGTGCTA` gave a log fluorescence of 6.37 z-score.
The log fluorescence of `GACGGTCTCGGTTTCGGGGCGTGCTAG` is reported as 6.49 z-score.
The log fluorescence of `TCATGTTTTTCATTATTACTGTGCTAG` is reported as 1.24 z-score.
`GACGGTTTCGACTATCGGGCCGTGCTA` has a log fluorescence of 5.13 z-score.
With `ACCCTCATTCTACTATCGATGTGCTAG` the log fluorescence was 0.717 z-score.

Set 5 — technique: RNA Bind-n-Seq; molecule type: RNA; sample: in vitro; tested at: 365 nM; reference: no-protein control; direction: higher = stronger binding
Target: RNA binding protein fox-1 homolog 2, RRM domain, GST-SBP tag (RBFOX2, Homo sapiens, UniProt O43251-10, residues 100-194)
Setting: natural RNA segment, single round, ends assumed
Shared flanks, not repeated: GGGAGUUCUACAGUCCGACGAUC … UGGAAUUCUCGGGUGCCAA
Construct (chain): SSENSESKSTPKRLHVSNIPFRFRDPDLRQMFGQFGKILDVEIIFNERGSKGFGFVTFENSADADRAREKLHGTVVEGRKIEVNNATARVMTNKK
For `GAUCAAAUCAAGACACAUUUCAUUUUACAUUUUAUUAUUGUACAGUUUUUGUUUCGGAUGAUGAUCACAGCAAUCUUUAUUCUAUACAUUUUAUGUGAACUUUUUUAAUG`, “RBNS enrichment (R)” read 0.601.
`GUUGCUAAUCAUAUGUUGCUUUAUCCAUAUGCUGUAUGACUCCAUAACAUGUAUGACUUUAAAUGGCUGGAACUGCUCAUAUGUGGACUAAACUAUUUUUGACAUGUUCA`: “RBNS enrichment (R)” 0.648.
For `UGUAUACCCCAACAUCUUUUCCAUCUUAAUCCAGCAUCGGGCCAUUCUCAAUCCCUGGUAAUCACCUCCCUUUUACAUGGACAGACUUGAGGUGAGGCCUAAGUAUGAGG`, “RBNS enrichment (R)” read 0.763.
Under “RBNS enrichment (R)”, `UGUAAAGUGCGAGGGGUGGGCUGUGCCCAGCACCCAGGGCCUAGGGGGCAAUUCUCCCUAGUGCCUCUGCACCAGACACCACAAAACCUCAGCCAUGCUGCCGCCGAAGG` is recorded as 0.319.
`GCUGCAUUAGAUAGGAUCCUCACAUCCCAUUCAGAACCAAAACUGAUACAGUGAAACAAUUAAGGUGAGCAAAUAGUUUUAACUUUUCUUUUUUUUUUUUAAGUUUCAUU` — result for “RBNS enrichment (R)”: 0.79.
`ACUAAACAGUGGAUUCCUCUCGUGUUACAGUUUUGAGUGAAUUAUUAAAGAAGUUAAAAUGCAAUAACUUUUUGGUCUCCUGUCUCAUUUUGAAUGAAUUUGAUGUGUUU`: “RBNS enrichment (R)” 1.25.
Under “RBNS enrichment (R)”, `AAACACACUGUACAUGUUGUGAACAAGCUUUCAUAGGUUUAUUAUAUUUGAUAUUUUUUUACUCGAGAAAGAACAUCUUUUUCCAUGAACAUCUGCAGCAGUUCACACGG` is recorded as 0.404.
For `AAUCGCUGGAUAAGCAAAUACAUGGGUCCUGUGCCCUCUCCCUUCACACCAUGGGAUACAUCUGUAUGGAGACGGUUCUUUUCUAGAUUUCCUCUACCUUUCUGCUCUUA`, “RBNS enrichment (R)” read 0.2.
`CUGAGAGGUAACAAAUGGGAUAUGGGUUGAGACUGCAUAAAAAACGUACUGCUGGUUGAAUAUCUGAGGUAAAUGAUGUUCAAUCAAGAUGCUACUUGUAUCAUUUUGCC` — result for “RBNS enrichment (R)”: 0.37.
`CUAGUUCAGAGCCCCCGUUCCCCAGGGUCCUGUGGGCUGAGCGGCUGGGGCUGGGGCUGCCCACGUGUGGCCUCCGCUGGCUCUGCCUGCUCCUGCAACAGUGCGGUCCC`: “RBNS enrichment (R)” 0.23.
Under “RBNS enrichment (R)”, `GUUGAGCCUUUUGAGUAUUUAAAAAAUAUAUACCAACAGAACUACUCUCCCAAGGAAAAUAUUGCCACCAUUUGUAGACCACGUAACCUUCAAGUAUGUGCUACUUUUUU` is recorded as 0.339.
`UAAGUAAAACAGCAGUGUACAUAUGUGUGUACAGGACACCAAGACUCGCAGGCAGGCCUGAGAGCCCCAGCCACUCUUCCGGCCCUCGGCGGACCUGCAGAUGACCUGGA` — result for “RBNS enrichment (R)”: 0.406.
